Assay results from different studies.
Numbered parts are unrelated; each lists some results of a single study. Substitutions count along the parent as printed.

Sample 1
Target: CCNF, cyclin fold, Cln2 fusion (human)
Method: yeast growth competition, sequencing
Sample: yeast
Setting: strong parent motif
Relative to: not given
Direction: higher = stronger binding
Starting sequence: WEE1 docking peptide (human); HKTFRKLRLFDTP
For `K6N`, “normalised enrichment score” read 2.65.
`T12G` — result for “normalised enrichment score”: 3.49.
Under “normalised enrichment score”, `R5A` is recorded as 0.27.
`R8M` — result for “normalised enrichment score”: 3.33.
For `L7P`, “normalised enrichment score” read 0.78.
For `K2L`, “normalised enrichment score” read 2.31.

Sample 2
Target: RNA binding protein fox-1 homolog 2, RRM domain, GST-SBP tag (RBFOX2, Homo sapiens, UniProt O43251-10, residues 100-194)
Method: RNA Bind-n-Seq
Form: RNA
Sample: in vitro
Concentration: 365 nM
Setting: natural RNA segment, single round, ends assumed
Relative to: no-protein control
Direction: higher = stronger binding
Residues (chain): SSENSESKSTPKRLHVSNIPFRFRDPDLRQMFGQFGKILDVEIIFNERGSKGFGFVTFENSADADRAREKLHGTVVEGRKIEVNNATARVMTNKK
`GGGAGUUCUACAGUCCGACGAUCGGCUCAUGCUACUAGUGCUCUGGGCCCAGUGACCAUGCACCUUCACCCCAGGCAGGCCCUGUGUACCCCUCCUCUAUACUCCAGCAUUUAAUCUUGUGGCUGCUUUCUUUUGGAAUUCUCGGGUGCCAA` — result for “RBNS enrichment (R)”: 0.762.
For `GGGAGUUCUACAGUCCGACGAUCUGUUUAAUAAGUGCCCAAAGAGCACGAACAUUUUUCAAAAAUACCUUGUGUUGUCCUUUGUCUUUUCUGUCUCAGAAUUUUGUACAUCUGGCUUAUUUUAAUGUGAUGAUUGGAAUUCUCGGGUGCCAA`, “RBNS enrichment (R)” read 0.407.
For `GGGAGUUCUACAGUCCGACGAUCCCGAGGCUGCUCCCCUGGAGCGGCGCCCCUGCGCCCUCAGCCCGAGCAGCGACAUCCACUCGCCAUUUGCUGACAUGAGAUUGGGAGGAAGAAUCCAGAGGUGAAGAGGGUGGAAUUCUCGGGUGCCAA`, “RBNS enrichment (R)” read 0.881.
For `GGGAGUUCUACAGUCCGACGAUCAAAACAUAUGCGCUGACAUUUUAUUACAAGCUGCAUGUCCUGACCUUCUUUGAAUUAAGUGGACUGUGGCAUGACAUUCUGCAAUAUUUUGCUGAAUUGAACACUAUUGUUGGAAUUCUCGGGUGCCAA`, “RBNS enrichment (R)” read 0.544.
For `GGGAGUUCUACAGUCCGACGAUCGGGAUGAAGGUCCAACAGCCUGUGCCUCUCCACUGCUGGCCCUGGAGCCGGCAGCAGUGAGGCAUUCAUUGUCUGUGUUGCGGUGUAUUCCCAGCUUCAGUGCUCUUUUCUGGAAUUCUCGGGUGCCAA`, “RBNS enrichment (R)” read 0.262.
`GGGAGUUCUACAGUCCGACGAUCGGGUUCUCUGAUAACCUAUGGGAAUGUUUGGAUGCCAGUUGGGCUAGUGAAUCGCCACUGUACUGUAAUAAUGGUUAUUUACCUCUGUGCUGUUUUAAUUACCUAACGUCUGGAAUUCUCGGGUGCCAA`: “RBNS enrichment (R)” 1.59.
Under “RBNS enrichment (R)”, `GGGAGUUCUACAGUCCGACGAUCUCCAGCUACCUACAUGUCUUUUCUUGUCAUCCUUAUAGAUCUCUUUGGCUUUCAGAAAGAUACAGUGAUAAUGUGUGUAUGAAUCAGUCACAAUGAAUUUUACUUGAAUAUGGAAUUCUCGGGUGCCAA` is recorded as 5.02.
For `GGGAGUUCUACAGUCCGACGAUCGGAGCAUAGCAUGUGGGUUUCUUUGUAGGAGGGCACUUAGGUCCCUUGCACACAGCCAUUCCCUAGCGCAAAGGUGCUGGUCACACUGCUUACUGAGGCGCUGAAGAGGCUGGAAUUCUCGGGUGCCAA`, “RBNS enrichment (R)” read 1.86.
Under “RBNS enrichment (R)”, `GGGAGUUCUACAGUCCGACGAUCUUCACCUAGGCUUUCACAGCAAAAGUUGGGUGGAAAGAGAAAUUUUUAUUUGUGAUGACACAAUAGAGCCAGAAUAUUAGCUAACAACGUUGAAGGAGGUGUUGGGUGUUUGGAAUUCUCGGGUGCCAA` is recorded as 0.575.
`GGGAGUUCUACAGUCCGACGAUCCUAGAUAACAUGCUUUGUGUGUAUCUGUGUAGUUCUGUGUUGCAGACGGAUGAUAUAUAAUGAUAAUAGAAUAGCACAUUCAGACUUACUUCCUGCAUGAUAGGGAGAGAUGGAAUUCUCGGGUGCCAA` — result for “RBNS enrichment (R)”: 24.7.
For `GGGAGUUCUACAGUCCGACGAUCUGUGAAAAUGUAGCAUGCUGUCUAUGUGGACGCCCUAGGAUGAGUGAUGUGAAACGCUGCACUACUGCGGUGAAUGGGUUCACACAUGGGUAAUGAGCAAAACCGAAAGCUGGAAUUCUCGGGUGCCAA`, “RBNS enrichment (R)” read 11.9.
For `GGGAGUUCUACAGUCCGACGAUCUCAAAACUUCCCACCCGACUAAAUUACCAGCAGAUAAACACUCUUCUGUGUGAGUAAACCGAGAGUUACCAUGUGGCCUCCUUGUGUCUAAAUGUUCCCUCUGUUCAGCUUGGAAUUCUCGGGUGCCAA`, “RBNS enrichment (R)” read 0.166.

Sample 3
Target: Sal-like protein 4, full length isoform A (SALL4, Homo sapiens, UniProt Q9UJQ4, residues 1-1053)
UniProt Q9UJQ4, sequence (whole entry, looked up): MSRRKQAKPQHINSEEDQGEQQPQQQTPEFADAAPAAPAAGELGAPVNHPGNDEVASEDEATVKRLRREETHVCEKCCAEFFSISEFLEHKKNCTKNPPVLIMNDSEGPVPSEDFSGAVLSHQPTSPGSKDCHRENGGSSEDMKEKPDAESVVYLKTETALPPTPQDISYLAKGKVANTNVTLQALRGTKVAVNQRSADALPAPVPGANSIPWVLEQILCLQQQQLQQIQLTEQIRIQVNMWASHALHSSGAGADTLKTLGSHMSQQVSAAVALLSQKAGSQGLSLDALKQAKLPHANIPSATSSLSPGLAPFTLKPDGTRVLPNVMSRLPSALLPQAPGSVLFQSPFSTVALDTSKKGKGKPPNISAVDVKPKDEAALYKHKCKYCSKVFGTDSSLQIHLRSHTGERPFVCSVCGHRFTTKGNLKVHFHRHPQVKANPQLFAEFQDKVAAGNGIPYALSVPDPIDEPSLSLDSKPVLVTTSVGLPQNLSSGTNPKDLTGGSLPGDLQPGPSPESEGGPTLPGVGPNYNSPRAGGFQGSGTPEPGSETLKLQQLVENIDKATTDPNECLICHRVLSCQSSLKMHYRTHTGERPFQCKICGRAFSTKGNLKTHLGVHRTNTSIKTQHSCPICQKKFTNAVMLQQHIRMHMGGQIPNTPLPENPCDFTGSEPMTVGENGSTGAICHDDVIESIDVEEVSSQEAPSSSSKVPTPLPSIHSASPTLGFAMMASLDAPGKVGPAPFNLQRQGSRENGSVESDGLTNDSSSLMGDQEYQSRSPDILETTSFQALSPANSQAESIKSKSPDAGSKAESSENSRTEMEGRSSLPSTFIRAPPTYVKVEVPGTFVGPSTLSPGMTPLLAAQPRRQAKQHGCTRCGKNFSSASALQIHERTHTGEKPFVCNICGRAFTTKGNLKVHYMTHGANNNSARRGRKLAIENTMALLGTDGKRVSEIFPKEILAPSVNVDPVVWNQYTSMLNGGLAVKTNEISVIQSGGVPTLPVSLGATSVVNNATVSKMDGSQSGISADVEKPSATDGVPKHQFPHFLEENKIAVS
Method: universal PBM
Form: double-stranded DNA, one strand shown
Sample: in vitro
Concentration: 600 nM
Setting: 8-mer, flanks averaged, mean of replicates
Direction: higher = stronger binding
`AGTGCTAC` gave an E-score of -0.00643.
With `TACTGTCA` the E-score was 0.14.
For `CGGTGGGC`, the E-score was -0.331.
For `CTAGTACC`, the E-score was -0.0746.
The E-score of `CGGCAGAC` is reported as -0.379.
The E-score of `CATCACTC` is reported as -0.187.
The E-score of `AACCCCTT` is reported as -0.123.
`AAATCCAA` has an E-score of 0.223.
`GCTTGCGA` gave an E-score of 0.0608.
`AAAAGAGC` gave an E-score of 0.0485.
With `AGAGATCC` the E-score was -0.0409.
For `CTTACAAC`, the E-score was 0.152.

Single results of other studies
With `PhoQ, residues 284 288 289 292 302 303 ALASRC` the fold induction was 18.2 (PhoP, residues 12 14 15 18 19 GHCSL (Escherichia coli, UniProt P23836); Sort-seq, measured: YFP reporter; E. coli; PhoQ-PhoP variant library, added: 10 µM Mg2+; relative to: high Mg2+ state, higher = stronger signaling).

Repeated from above (sample 3):
For `CTTACAAC`, the E-score was 0.152.
`AAAAGAGC` gave an E-score of 0.0485.
With `AGAGATCC` the E-score was -0.0409.
The E-score of `AACCCCTT` is reported as -0.123.
The E-score of `CGGCAGAC` is reported as -0.379.
